Results gathered from unrelated publications.
Compare with care: the assays were run in different laboratories. “And” joins repeats or separate records; there may be more than shown. ± gives the spread as reported.
MAL12: Alpha-glucosidase MAL12 (MAL12, Saccharomyces cerevisiae S288c, UniProt P53341)
Chain of UniProt P53341 (whole entry, looked up): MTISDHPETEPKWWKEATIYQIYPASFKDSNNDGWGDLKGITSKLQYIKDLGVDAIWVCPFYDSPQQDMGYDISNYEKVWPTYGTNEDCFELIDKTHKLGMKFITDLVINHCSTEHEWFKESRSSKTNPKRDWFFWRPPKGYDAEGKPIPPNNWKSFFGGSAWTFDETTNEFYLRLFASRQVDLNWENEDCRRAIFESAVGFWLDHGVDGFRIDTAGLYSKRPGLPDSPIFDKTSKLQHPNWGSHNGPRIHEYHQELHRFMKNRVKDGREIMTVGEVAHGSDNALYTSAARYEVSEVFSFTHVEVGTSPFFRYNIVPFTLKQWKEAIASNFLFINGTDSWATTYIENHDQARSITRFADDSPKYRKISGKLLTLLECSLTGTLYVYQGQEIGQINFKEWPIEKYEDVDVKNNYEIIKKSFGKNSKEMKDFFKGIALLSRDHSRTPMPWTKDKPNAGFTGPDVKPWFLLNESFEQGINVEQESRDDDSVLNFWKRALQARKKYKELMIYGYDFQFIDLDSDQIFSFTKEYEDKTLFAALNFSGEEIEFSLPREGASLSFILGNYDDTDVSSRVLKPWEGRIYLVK
KCNJ13 M125R: Inward rectifier potassium channel 13 (KCNJ13, Homo sapiens, UniProt O60928, M125R)
Chain of UniProt O60928 (whole entry, unmodified, looked up): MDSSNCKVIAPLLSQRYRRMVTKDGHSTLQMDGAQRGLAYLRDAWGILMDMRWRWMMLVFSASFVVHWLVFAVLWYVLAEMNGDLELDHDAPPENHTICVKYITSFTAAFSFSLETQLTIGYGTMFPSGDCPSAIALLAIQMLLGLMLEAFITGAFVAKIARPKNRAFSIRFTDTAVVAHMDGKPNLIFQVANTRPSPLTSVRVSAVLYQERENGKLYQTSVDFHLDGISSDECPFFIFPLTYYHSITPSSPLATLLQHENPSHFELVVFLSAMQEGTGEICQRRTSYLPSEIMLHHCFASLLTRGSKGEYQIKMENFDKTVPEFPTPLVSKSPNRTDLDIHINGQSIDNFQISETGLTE
RIPK3: Receptor-interacting serine/threonine-protein kinase 3 (RIPK3, Homo sapiens, UniProt Q9Y572)
Urease: Urease (Canavalia ensiformis, UniProt P07374)
Chain of UniProt P07374 (whole entry, looked up): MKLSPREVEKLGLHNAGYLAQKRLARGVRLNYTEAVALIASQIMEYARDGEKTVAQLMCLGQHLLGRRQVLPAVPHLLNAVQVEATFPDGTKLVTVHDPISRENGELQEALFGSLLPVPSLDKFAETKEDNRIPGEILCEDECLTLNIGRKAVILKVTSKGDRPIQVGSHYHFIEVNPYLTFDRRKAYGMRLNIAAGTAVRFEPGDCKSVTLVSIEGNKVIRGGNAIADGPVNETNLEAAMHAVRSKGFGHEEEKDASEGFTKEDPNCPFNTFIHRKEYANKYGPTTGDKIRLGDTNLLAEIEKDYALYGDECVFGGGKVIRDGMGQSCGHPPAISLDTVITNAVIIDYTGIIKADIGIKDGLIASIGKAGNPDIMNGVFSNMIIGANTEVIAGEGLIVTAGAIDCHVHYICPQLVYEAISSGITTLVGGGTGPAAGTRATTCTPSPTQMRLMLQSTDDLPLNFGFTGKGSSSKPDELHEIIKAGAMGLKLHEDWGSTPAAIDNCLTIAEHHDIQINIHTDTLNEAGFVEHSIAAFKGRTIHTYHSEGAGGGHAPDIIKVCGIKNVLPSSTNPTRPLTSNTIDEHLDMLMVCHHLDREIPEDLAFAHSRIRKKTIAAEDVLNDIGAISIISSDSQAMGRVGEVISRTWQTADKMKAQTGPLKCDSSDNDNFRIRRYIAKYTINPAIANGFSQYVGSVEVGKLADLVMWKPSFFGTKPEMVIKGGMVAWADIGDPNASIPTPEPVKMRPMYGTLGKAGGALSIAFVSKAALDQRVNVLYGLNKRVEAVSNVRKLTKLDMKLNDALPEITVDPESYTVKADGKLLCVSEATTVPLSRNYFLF
Kir1 channel protein: Kir1 channel protein (Aedes aegypti, UniProt L0EQS9)
CACNA1H: Voltage-dependent T-type calcium channel subunit alpha-1H (CACNA1H, Homo sapiens, UniProt O95180)
Chain of UniProt O95551 (whole entry, looked up): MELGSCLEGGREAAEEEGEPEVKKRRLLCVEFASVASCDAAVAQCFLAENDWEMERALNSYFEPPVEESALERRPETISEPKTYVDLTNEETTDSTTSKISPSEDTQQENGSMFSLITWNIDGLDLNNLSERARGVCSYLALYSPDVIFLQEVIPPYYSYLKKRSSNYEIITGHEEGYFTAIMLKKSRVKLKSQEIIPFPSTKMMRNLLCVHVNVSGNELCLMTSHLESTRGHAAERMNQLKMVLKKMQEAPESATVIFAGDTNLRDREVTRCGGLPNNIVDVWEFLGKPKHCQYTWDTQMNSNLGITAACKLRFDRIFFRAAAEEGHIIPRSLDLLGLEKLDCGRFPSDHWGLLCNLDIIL
Chain of UniProt O95180 (whole entry, looked up): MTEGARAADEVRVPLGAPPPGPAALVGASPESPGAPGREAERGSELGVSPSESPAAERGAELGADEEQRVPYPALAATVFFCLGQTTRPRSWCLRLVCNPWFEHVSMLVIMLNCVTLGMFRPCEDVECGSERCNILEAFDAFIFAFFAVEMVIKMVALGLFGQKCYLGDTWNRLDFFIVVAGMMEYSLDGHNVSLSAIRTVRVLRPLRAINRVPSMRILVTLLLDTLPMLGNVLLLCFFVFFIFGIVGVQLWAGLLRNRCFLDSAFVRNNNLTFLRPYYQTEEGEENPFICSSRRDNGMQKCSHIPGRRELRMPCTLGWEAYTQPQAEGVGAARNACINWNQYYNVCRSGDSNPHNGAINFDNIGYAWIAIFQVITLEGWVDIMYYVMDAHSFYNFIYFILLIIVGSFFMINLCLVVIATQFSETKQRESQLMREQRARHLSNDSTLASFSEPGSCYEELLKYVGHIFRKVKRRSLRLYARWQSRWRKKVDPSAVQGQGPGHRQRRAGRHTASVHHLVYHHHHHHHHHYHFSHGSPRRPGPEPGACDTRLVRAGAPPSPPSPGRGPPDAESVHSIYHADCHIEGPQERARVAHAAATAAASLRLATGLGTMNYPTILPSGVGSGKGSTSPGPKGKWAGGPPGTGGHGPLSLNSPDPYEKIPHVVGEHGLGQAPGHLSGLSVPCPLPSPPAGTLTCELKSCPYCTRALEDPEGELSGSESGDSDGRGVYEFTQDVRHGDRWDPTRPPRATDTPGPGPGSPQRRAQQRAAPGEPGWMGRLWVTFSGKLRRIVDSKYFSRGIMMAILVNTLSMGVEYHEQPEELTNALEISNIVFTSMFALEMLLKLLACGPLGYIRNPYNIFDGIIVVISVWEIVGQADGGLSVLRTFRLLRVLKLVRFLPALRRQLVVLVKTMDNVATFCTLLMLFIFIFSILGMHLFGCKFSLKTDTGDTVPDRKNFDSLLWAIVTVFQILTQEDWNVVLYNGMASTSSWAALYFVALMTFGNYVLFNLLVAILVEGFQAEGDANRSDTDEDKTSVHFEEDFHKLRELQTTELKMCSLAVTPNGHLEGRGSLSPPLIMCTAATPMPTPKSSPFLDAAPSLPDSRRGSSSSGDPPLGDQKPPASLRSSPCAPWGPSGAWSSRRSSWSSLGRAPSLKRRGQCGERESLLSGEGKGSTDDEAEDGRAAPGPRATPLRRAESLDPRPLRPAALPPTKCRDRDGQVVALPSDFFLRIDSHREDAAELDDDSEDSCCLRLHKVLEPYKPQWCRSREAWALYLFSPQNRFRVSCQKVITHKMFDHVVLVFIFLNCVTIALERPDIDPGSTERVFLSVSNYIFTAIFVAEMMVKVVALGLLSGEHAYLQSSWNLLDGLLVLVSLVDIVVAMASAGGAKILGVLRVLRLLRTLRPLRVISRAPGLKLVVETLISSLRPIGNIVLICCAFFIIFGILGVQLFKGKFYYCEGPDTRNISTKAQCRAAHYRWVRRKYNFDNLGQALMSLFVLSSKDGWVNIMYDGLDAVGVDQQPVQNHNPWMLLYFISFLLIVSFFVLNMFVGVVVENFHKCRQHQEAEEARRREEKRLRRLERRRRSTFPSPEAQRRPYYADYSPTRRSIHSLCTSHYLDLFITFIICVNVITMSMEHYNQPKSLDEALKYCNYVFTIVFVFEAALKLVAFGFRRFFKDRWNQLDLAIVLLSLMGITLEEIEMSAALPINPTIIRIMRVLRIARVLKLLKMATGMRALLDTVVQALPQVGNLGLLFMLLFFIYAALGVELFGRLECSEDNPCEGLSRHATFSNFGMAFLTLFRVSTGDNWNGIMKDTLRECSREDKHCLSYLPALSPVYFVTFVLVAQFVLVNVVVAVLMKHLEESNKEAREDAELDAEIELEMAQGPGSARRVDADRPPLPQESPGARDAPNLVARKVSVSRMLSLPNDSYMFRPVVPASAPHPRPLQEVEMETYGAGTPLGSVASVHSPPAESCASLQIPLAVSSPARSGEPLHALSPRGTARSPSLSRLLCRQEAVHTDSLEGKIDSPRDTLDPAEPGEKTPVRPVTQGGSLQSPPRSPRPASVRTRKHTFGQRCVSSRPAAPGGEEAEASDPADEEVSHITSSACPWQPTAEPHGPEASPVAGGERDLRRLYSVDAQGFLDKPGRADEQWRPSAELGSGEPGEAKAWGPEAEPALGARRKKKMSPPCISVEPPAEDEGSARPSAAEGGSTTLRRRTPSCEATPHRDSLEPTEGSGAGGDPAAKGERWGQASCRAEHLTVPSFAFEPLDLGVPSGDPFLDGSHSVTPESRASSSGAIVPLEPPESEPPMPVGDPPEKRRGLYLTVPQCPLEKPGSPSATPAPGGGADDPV
Chain of UniProt Q9UNU6 (whole entry, looked up): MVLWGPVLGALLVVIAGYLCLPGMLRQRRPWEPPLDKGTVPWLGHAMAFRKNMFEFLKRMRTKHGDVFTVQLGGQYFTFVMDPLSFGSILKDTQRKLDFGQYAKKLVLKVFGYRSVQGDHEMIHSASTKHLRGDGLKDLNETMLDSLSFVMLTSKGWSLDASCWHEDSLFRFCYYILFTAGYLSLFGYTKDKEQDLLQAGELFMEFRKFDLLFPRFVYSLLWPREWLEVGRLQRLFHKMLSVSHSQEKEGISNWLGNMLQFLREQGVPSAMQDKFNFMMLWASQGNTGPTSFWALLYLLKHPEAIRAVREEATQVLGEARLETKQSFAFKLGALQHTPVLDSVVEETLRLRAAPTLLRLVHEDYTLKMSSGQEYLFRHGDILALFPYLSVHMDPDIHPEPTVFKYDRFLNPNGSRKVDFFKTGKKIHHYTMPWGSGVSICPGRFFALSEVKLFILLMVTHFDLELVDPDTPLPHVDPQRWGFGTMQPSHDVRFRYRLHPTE

Compound	target	assay	test system	conditions	IC50
Oc1cc(O)c2c(c1)O[C@H](c1ccc(O)c(O)c1)[C@H](O)[C@H]2c1c(O)cc(O)c2c1O[C@H](c1ccc(O)c(O)c1)[C@H](O)[C@H]2c1c(O)cc(O)c2c1O[C@H](c1ccc(O)c(O)c1)[C@H](O)C2	alpha-glucosidase (Bacillus stearothermophilus)	inhibitor	–	20 min, pH 6.8, 60 °C, together with: pNPG substrate	3.4 ± 1.1 µM
Nc1ccccc1NC(=O)c1ccc(CNc2nccc(-c3cccnc3)n2)cc1	HDAC (Lucilia cuprina egg nuclear extract)	enzyme activity, inhibitor, fluorometric	–	–	> 100 µM
CN(C)c1cc2c(Nc3ccc4c(cnn4Cc4ccccc4)c3)ncnc2cn1	Potassium channel subfamily K member 18 (KCNK18, Homo sapiens, UniProt Q7Z418)	ion flux, inhibitor	–	–	26.6 µM
Cc1ccc(S(=O)(=O)Nc2cccc(-c3nnn[nH]3)c2)cc1C	Leucyl-cystinyl aminopeptidase (LNPEP, Homo sapiens, UniProt Q9UIQ6)	enzyme activity, inhibitor, fluorescence	–	–	0.74 µM
CCCN(CCC)c1ccc(C=O)cc1	Aldehyde dehydrogenase 1A1 (Aldh1a1, Mus musculus, UniProt P24549)	enzyme activity, inhibitor, spectrophotometry	purified mouse liver enzyme	pH 8.4, together with: all-trans retinal 1-10 µM, 1 mM NAD	0.11 ± 0.02 µM
N#CC1=C(N)Oc2c(c(=O)[nH]c3ccccc23)C1c1cccc(OCc2cn(Cc3ccc(Cl)cc3)nn2)c1 (stereo not shown)	MAL12	enzyme activity	–	–	15.13 ± 0.15 µM
Cc1ccc(OCC(O)Cn2c(=N)n(C)c3ccccc32)cc1 (stereo not shown)	KCNJ13 M125R	ion flux, inhibitor	–	–	25.3 µM
C[C@]12CC[C@@H]3c4cc(OC(F)F)c(OS(N)(=O)=O)cc4CC[C@H]3[C@@H]1CC[C@@H]2OS(N)(=O)=O	Steryl-sulfatase (STS, Homo sapiens, UniProt P08842)	inhibitor	JEG-3	–	0.0037 µM
N=C(N)SCCc1ccc(OCc2ccc([N+](=O)[O-])cc2)cc1	Sodium/calcium exchanger 1, isoform NCX1.7 (SLC8A1, Homo sapiens, UniProt P32418)	forward-mode exchange current, inhibitor, inside-out patch clamp	tsA201	β-cell splice variant	2.4 µM
O=C(OC[C@H]1OC[C@H](OC(=O)c2cc(O)c(O)c(O)c2)[C@@H](O)[C@@H]1O)c1cc(O)c(O)c(O)c1	DNA oxidative demethylase ALKBH2 (ALKBH2, Homo sapiens, UniProt Q6NS38)	1-methyladenine repair, inhibitor, HPLC	–	1 h, 37 °C, together with: ssDNA 16mer 5 µM	10.6 µM
N=c1n(Cc2ccc(Cl)cc2)c2ccccc2n1CC(O)COc1ccccc1 (stereo not shown)	KCNJ13 M125R	ion flux, inhibitor	–	–	8.93 µM
CCC(C)c1nc2cc(-c3nn(C(C)(C)C)c4ncnc(N)c34)ccc2s1 (stereo not shown)	RIPK3	enzyme activity, inhibitor, ADP detection	–	–	0.041 µM
O=c1cc(-c2ccccc2)[nH]c2ccc3c(ccn3S(=O)(=O)c3ccc(C(F)(F)F)cc3)c12	Tubulin alpha-1B chain/TUBB2B (Bos taurus, UniProt P81947+Q6B856)	tubulin polymerization, turbidimetry	–	20 min	2.2 to 2.4 µM
Cc1ccc2nc(C(C)C)n(-c3ccc4[nH]ncc4c3)c2n1	GRIA1/CACNG8 (Homo sapiens, UniProt P42261+Q8WXS5)	calcium influx, antagonist, FLIPR	HEK293 expressing GluA1o	together with: glutamate 100 µM	0.0113 µM
NC(=O)[C@@H]1CC[C@@H]2CN1C(=O)N2OS(=O)(=O)O	Penicillin-binding protein 1 (Staphylococcus aureus, UniProt Q2FZ94)	binding, Bocillin FL competition	Staphylococcus aureus, ATCC 29213, membranes	together with: Bocillin FL 100 µM	> 965 µM
S=C(NC1CCCCC1)N1CCc2ccccc2C1	Urease	enzyme activity, inhibitor, absorbance	–	–	24.5 µM
O=C(NNC(=O)c1ccc(CNS(=O)(=O)c2ccc(F)c(Cl)c2)cc1)c1ccccc1	Glutamate NMDA receptor; Grin1/Grin2a (Grin1/Grin2a, Rattus norvegicus, UniProt P35439+Q00959, V783D)	ion current, two-electrode voltage clamp	–	oocytes	0.27 µM
COC(=O)C1=C(C)NC(C)=C(C(=O)OCCN(C)Cc2ccccc2)C1c1cccc([N+](=O)[O-])c1 (stereo not shown)	Multidrug resistance-associated protein 1 (ABCC1, Homo sapiens, UniProt P33527)	efflux, inhibitor, flow cytometry	SupT1 cells overexpressing ABCC1	together with: 500 nM CellTracker Orange CMTMR	0.6 ± 0.4 µM
Cc1cccc(Cc2nn(C(C)(C)C)c3ncnc(N)c23)c1	Ephrin type-B receptor 1 (EPHB1, Homo sapiens, UniProt P54762)	enzyme activity, inhibitor, radiometric	–	–	0.58 µM
COc1ccc(Cn2c(NCCNC(=N)NC(=O)c3ccc(F)cc3)nc(=O)n(Cc3ccc(F)cc3)c2=O)cc1	Prokineticin receptor 1 (PROKR1, Homo sapiens, UniProt Q8TCW9)	ligand displacement, radioligand	–	–	0.11 µM
CCCCc1oc2ccccc2c1C(=O)c1cc(Br)c(O)c(Br)c1	Solute carrier family 22 member 12 (SLC22A12, Homo sapiens, UniProt Q96S37)	–	human cells	–	1.9 µM
Cc1ccc(S(=O)(=O)/C=C/C#N)cc1	Ubiquitin carboxyl-terminal hydrolase 7 (USP7, Homo sapiens, UniProt Q93009)	deubiquitinase activity, inhibitor, MALDI-TOF DUB	–	60 min, 30 °C, 35 min pre-incubation, together with: diubiquitin substrate	0.19 µM

Compound	target	assay	test system	conditions	IC50
O=c1cc(-c2ccc(O)cc2)oc2ccccc12	Cytochrome P450 2B1 (Cyp2b1, Rattus norvegicus, UniProt P00176)	enzyme activity, inhibitor	supersomes	together with: pentoxyresorufin 5 µM	> 50 µM
N=c1n(Cc2ccc(Cl)cc2)c2ccccc2n1CC(O)COc1ccc(Cl)cc1 (stereo not shown)	KCNJ13 M125R	ion flux, inhibitor	–	–	19.5 µM
S=C(Nc1cc(Cl)ccc1Cl)N1CCc2ccccc2C1	Urease	enzyme activity, inhibitor, absorbance	–	–	56.7 µM
COc1cc(/C=N/NC(=O)COc2cc(C)cc3oc(=O)cc(C)c23)ccc1OCc1cn(Cc2ccc(Cl)cc2)nn1	Urease	enzyme activity, inhibitor	–	–	13.2 ± 2.06 µM
Cc1cc(CNc2cc(N3CCN(S(=O)(=O)c4ccc(F)cc4)CC3)ccc2[N+](=O)[O-])no1	Kir1 channel protein	ion flux, inhibitor, fluorescence	–	–	0.736 µM
N=c1n(Cc2ccccc2)c2ccccc2n1CC(O)COc1ccc(Cc2ccccc2)cc1 (stereo not shown)	KCNJ13 M125R	ion flux, inhibitor	–	–	6.07 µM
COc1ccc(-c2nc(N3CCOCC3)c3sc(CN(C)c4ncc(C(=O)NO)cn4)cc3n2)cn1	HDAC (Lucilia cuprina egg nuclear extract)	enzyme activity, inhibitor, fluorometric	–	–	0.11 µM
N=c1n(Cc2ccccc2)c2ccccc2n1CC(O)COc1ccc(OCc2ccccc2)cc1 (stereo not shown)	KCNJ13 M125R	ion flux, inhibitor	–	–	> 100 µM
O=C1c2cc3c(cc2-c2c1c1ccc(F)cc1c(=O)n2CCCNCCO)OCO3	Tyrosyl-DNA phosphodiesterase 2 (TDP2, Homo sapiens, UniProt O95551)	enzyme activity, inhibitor	–	–	14.1 µM and 10.2 µM
Cc1nccn1CC(=O)c1ccc(O)c(O)c1	Alkaline phosphatase, placental type (Homo sapiens, UniProt P05187)	enzyme activity, inhibitor, luminescence, CDP-star substrate	–	different enzyme concentrations	14.3 µM
Cn1c2ccccc2c2c3c(c4c5ccccc5n(CCC#N)c4c21)CNC3=O	Leucine-rich repeat serine/threonine-protein kinase 2 (LRRK2, Homo sapiens, UniProt Q5S007)	LRRKtide phosphorylation, inhibitor	–	25 °C, together with: 1 µM ATP	~0.25 µM
S=C(Nc1cccc(Cl)c1Cl)N1CCc2ccccc2C1	Urease	enzyme activity, inhibitor, absorbance	–	–	30.3 µM
CN1C(=O)NC(Cc2c[nH]c3c(Cl)cccc23)C1=O (stereo not shown)	RIPK3	enzyme activity, inhibitor, ADP-Glo kinase	–	20 ng enzyme	> 10 µM
CC(=O)c1cnc2ccc(-c3cc(Cl)c(O)c(Cl)c3)nc2c1N[C@H]1CC[C@H](CN(C)C)CC1	Serine-protein kinase ATM (ATM, Homo sapiens, UniProt Q13315)	kinase activity reporter, inhibitor, SPARK reporter imaging	HEK293	1 h, together with: etoposide 3 µM	0.064 µM
Clc1cccc(C(c2ccc3[nH]cnc3c2)n2ccnc2)c1 (stereo not shown)	7-alpha-hydroxycholest-4-en-3-one 12-alpha-hydroxylase (Homo sapiens, UniProt Q9UNU6)	enzyme activity, inhibitor	–	2 min, together with: 7α-hydroxycholest-4-en-3-one 0.5 µM (Km)	~40 µM and 37.7 µM
CN1CCN(CCC(=O)Nc2ccc3c(c2)Sc2cccc(-c4cc(=O)cc(N5CCOCC5)o4)c2S3)CC1	Serine/threonine-protein kinase mTOR (MTOR, Homo sapiens, UniProt P42345)	enzyme activity, inhibitor	–	–	14 µM
NC(=S)N/N=C/c1cc2ccccc2nc1SCc1cn(CC(=O)NCCc2ccccc2)nn1	MAL12	enzyme activity, inhibitor	–	–	≤ 70.3 µM
NC(=O)N1c2ccccc2C[C@H](O)c2ccccc21	CACNA1H	calcium current, inhibitor, whole-cell patch clamp	HEK293	low-affinity component	62.6 µM
O=[N+]([O-])c1ccc(N2CCN(S(=O)(=O)c3ccc(F)cc3)CC2)cc1NCc1ncon1	Kir1 channel protein	ion flux, inhibitor, fluorescence	–	–	0.19 µM
C[C@@H](CNCc1ccccc1)N1C[C@H](CCCNC(=N)N)N(CCc2cccc(F)c2)C1=S	central imidazoline I2 site	binding, radioligand displacement	–	–	> 1 µM
COC(=O)C1=C(C)NC(C)=C(C(=O)OC)C1c1ccccc1[N+](=O)[O-]	CACNA1H	calcium current, blocker, automated patch clamp	holding potential -90 mV	together with: 60 s prepulse, -75 mV	> 3 µM

For quick reference, copied from above:
Compound	target	assay	test system	conditions	IC50
NC(=O)[C@@H]1CC[C@@H]2CN1C(=O)N2OS(=O)(=O)O	Penicillin-binding protein 1 (Staphylococcus aureus, UniProt Q2FZ94)	binding, Bocillin FL competition	Staphylococcus aureus, ATCC 29213, membranes	together with: Bocillin FL 100 µM	> 965 µM
S=C(NC1CCCCC1)N1CCc2ccccc2C1	Urease	enzyme activity, inhibitor, absorbance	–	–	24.5 µM
O=C(NNC(=O)c1ccc(CNS(=O)(=O)c2ccc(F)c(Cl)c2)cc1)c1ccccc1	Glutamate NMDA receptor; Grin1/Grin2a (Grin1/Grin2a, Rattus norvegicus, UniProt P35439+Q00959, V783D)	ion current, two-electrode voltage clamp	–	oocytes	0.27 µM
